Results pooled from the literature.
Each numbered part is a random draw from the data of one study; scales do not carry over between parts. Several values in a cell are separate wells, animals, samples, runs or records.

Series 1 — method: CCK-8
Structure (SMILES): CC(C)S(=O)(=O)c1ccc2nccc(Nc3ccc4sc(C5CCCC5)nc4c3)c2c1.Cl
cell line	setting	survival
L929 RIPK3-/- reexpressing RIPK3 K51A/R69H	3.125 µM, together with: zVAD	99.6% and 84.7% and 86.5% and 97.3%
L929 RIPK3-/- reexpressing RIPK3 K51A	25 µM, together with: zVAD	88.6% and 84% and 109% and 84.9%
L929 RIPK3-/- reexpressing RIPK3 K51A/R69H	1.563 µM, together with: zVAD	95.6% and 101% and 89.3% and 86.3%
L929 RIPK3-/- reexpressing RIPK3 K51A/R69H	12.5 µM, together with: zVAD	85% and 95.7% and 95.5% and 79.9%
L929 RIPK3-/- reexpressing RIPK3 K51A/R69H	6.25 µM	101% and 93.7% and 80.4% and 92.2%

Series 2 — cell line: A-375; concentration: 100 µM; time: 36 h
SMILES	viability [%]
C[C@@H]1CC[C@H]2[C@@H](C)C(=O)O[C@@H]3O[C@@]4(C)CC[C@@H]1[C@]32OO4	101
Cn1c(CCCC(=O)O)nc2cc(N(CCCl)CCCl)ccc21	101
NCC(CC(=O)O)c1ccc(Cl)cc1 (stereo not shown)	88
CC(C)N(CCC(C(N)=O)(c1ccccc1)c1ccccn1)C(C)C (stereo not shown)	93.8
CNC(=O)Oc1ccccc1OC(C)C	103
CC(C)N(CCNC(=O)CN1CCCC1=O)C(C)C	68.2
CC(NC(C)(C)C)C(=O)c1cccc(Cl)c1 (stereo not shown)	84.8
N#Cc1nn(-c2c(Cl)cc(C(F)(F)F)cc2Cl)c(N)c1[S+]([O-])C(F)(F)F (stereo not shown)	14.8

Series 3 — cell line: HEK-293T/ACE2; concentration: 10 µM; time: 16 h; baseline: vehicle
Compound	viability [%]
CCn1cc(C(=O)O)c(=O)c2cc(F)c(N3CCNC(C)C3)c(F)c21 (stereo not shown)	101
Cc1cccc(Nc2ccccc2C(=O)O)c1C	93.6
CC(C)[C@H](N)C(=O)OCC(CO)OCn1cnc2c(=O)nc(N)[nH]c21 (stereo partly shown)	103
O=c1oc2ccccc2c(O)c1Cc1c(O)c2ccccc2oc1=O	97.2
OC(CCCN1CCCCC1)(c1ccccc1)c1ccccc1	102
Nc1ccc(/N=N/c2ccccc2)c(N)n1	105
COc1cc([C@@H]2c3cc4c(cc3[C@@H](O[C@@H]3O[C@@H]5CO[C@@H](c6cccs6)O[C@H]5[C@H](O)[C@H]3O)[C@H]3COC(=O)[C@H]23)OCO4)cc(OC)c1O	61.7
CC(=O)c1ccc(S(=O)(=O)NC(=O)NC2CCCCC2)cc1	98.1
O=C(C1CCCCC1)N1CC(=O)N2CCc3ccccc3C2C1 (stereo not shown)	103
Cn1cc[nH]c1=S	101
C[C@]12CCC(=O)C=C1[C@@H]1C[C@@H]1[C@H]1[C@@H]3[C@@H]4C[C@@H]4[C@@]4(CCC(=O)O4)[C@@]3(C)CC[C@@H]12	98.3
O=C(O[C@H]1C[C@H]2CC[C@@H](C1)[N+]21CCCC1)C(O)(c1ccccc1)c1ccccc1	97.7
Cc1cn([C@H]2C[C@H](N=[N+]=[N-])[C@@H](CO)O2)c(=O)[nH]c1=O	100
CC(C)Cc1ccc(C(C)C(=O)O)cc1 (stereo not shown)	98.2

Further values, each from its own experiment
Structure (SMILES)	test	measurement	result
CCOC(=O)[C@@H]1CSCC(=O)N[C@H](CC)C(=O)N(C)[C@@H](C)C(=O)N[C@@H](CC(C)C)C(=O)N(C)[C@H](C)C(=O)N(CC(C)C)CC(=O)N[C@H](CC(C)C)C(=O)N(C)[C@@H](C)C(=O)N[C@@H](CC(C)C)C(=O)N1C	PRP-column chromatography	log k' (60)	1.08

Excerpt of the above (series 3):
Compound	viability [%]
OC(CCCN1CCCCC1)(c1ccccc1)c1ccccc1	102
C[C@]12CCC(=O)C=C1[C@@H]1C[C@@H]1[C@H]1[C@@H]3[C@@H]4C[C@@H]4[C@@]4(CCC(=O)O4)[C@@]3(C)CC[C@@H]12	98.3
CC(=O)c1ccc(S(=O)(=O)NC(=O)NC2CCCCC2)cc1	98.1
Cc1cn([C@H]2C[C@H](N=[N+]=[N-])[C@@H](CO)O2)c(=O)[nH]c1=O	100
